Results collected from several papers.
Compare with care: the assays were run in different laboratories. Several values in a cell are separate wells, animals, samples, runs or records. Numbers after ± are the reported error.
SRD5A1: 3-oxo-5-alpha-steroid 4-dehydrogenase 1 (SRD5A1, Homo sapiens, UniProt P18405)
Chain of UniProt P18405 (whole entry, looked up): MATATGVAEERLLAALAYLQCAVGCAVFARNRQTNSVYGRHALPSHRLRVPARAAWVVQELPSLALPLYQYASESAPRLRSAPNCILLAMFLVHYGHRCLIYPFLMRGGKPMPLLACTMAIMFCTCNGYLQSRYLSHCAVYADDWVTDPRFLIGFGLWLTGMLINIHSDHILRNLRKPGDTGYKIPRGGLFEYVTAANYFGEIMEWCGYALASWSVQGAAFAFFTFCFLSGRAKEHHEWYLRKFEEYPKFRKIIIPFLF
JAK2: Tyrosine-protein kinase JAK2 (JAK2, Homo sapiens, UniProt O60674)
Chain of UniProt O60674 (whole entry, looked up): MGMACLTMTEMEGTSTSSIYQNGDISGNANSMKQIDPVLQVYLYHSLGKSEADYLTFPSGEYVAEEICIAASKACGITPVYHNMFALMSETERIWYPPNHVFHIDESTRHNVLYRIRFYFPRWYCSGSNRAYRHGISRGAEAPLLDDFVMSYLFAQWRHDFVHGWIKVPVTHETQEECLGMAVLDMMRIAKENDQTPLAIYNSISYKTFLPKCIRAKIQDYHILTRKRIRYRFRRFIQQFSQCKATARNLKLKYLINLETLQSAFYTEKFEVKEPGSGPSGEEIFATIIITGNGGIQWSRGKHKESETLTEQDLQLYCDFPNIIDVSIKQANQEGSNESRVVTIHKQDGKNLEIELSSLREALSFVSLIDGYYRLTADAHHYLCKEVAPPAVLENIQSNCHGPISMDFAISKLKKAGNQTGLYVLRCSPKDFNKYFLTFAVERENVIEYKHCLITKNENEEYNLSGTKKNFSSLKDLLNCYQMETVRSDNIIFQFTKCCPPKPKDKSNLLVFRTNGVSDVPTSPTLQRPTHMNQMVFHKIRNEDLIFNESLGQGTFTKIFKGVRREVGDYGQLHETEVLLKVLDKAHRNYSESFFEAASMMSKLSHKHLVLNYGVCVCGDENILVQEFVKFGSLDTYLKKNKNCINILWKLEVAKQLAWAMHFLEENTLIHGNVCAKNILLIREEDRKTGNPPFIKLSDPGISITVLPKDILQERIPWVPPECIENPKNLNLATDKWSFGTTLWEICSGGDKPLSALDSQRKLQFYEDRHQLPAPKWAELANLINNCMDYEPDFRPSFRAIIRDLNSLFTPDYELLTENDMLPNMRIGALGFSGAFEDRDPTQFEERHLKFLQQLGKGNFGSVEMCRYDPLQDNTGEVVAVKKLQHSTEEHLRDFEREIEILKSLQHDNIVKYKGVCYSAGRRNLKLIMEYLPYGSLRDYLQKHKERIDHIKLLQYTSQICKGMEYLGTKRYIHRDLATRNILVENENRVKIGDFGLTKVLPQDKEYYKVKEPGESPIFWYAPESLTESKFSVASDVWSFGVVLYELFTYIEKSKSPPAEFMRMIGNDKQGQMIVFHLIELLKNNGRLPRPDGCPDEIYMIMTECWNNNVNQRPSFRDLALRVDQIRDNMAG
SIRT2: NAD-dependent protein deacetylase sirtuin-2 (SIRT2, Homo sapiens, UniProt Q8IXJ6)
Chain of UniProt Q8IXJ6 (whole entry, looked up): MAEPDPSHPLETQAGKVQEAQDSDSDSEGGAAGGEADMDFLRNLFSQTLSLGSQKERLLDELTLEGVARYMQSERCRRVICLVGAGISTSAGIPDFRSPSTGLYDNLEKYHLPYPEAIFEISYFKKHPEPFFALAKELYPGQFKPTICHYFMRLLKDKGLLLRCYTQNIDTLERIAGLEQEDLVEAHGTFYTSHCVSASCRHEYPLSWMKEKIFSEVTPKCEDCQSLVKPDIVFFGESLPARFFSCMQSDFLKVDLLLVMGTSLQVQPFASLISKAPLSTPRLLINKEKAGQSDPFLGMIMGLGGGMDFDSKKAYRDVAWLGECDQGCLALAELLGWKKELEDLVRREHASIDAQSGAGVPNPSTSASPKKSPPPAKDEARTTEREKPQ
NR3C1: Glucocorticoid receptor (NR3C1, Homo sapiens, UniProt P04150)
Chain of UniProt P04150 (whole entry, looked up): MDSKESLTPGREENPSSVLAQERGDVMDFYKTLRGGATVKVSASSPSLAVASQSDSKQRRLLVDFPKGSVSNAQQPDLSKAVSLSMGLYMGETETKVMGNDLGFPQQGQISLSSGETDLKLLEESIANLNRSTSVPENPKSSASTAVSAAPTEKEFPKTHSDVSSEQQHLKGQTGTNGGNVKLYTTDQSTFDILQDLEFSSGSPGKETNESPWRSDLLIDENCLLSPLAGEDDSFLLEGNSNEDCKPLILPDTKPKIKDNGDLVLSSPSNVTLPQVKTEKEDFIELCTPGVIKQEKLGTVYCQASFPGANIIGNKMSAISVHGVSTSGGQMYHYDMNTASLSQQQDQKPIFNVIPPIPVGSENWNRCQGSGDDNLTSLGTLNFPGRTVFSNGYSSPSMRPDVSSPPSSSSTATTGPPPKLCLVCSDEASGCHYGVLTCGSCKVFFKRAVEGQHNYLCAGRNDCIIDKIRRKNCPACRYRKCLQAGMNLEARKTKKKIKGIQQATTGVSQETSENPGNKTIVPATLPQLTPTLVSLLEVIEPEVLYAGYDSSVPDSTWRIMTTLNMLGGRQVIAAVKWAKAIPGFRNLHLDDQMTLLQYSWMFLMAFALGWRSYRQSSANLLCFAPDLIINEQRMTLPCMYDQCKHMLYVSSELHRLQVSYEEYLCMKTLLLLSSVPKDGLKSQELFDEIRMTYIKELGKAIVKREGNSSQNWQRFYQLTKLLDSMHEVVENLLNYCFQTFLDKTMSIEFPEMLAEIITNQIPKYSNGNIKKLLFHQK
AGER: Advanced glycosylation end product-specific receptor (AGER, Homo sapiens, UniProt Q15109)
Chain of UniProt Q15109 (whole entry, looked up): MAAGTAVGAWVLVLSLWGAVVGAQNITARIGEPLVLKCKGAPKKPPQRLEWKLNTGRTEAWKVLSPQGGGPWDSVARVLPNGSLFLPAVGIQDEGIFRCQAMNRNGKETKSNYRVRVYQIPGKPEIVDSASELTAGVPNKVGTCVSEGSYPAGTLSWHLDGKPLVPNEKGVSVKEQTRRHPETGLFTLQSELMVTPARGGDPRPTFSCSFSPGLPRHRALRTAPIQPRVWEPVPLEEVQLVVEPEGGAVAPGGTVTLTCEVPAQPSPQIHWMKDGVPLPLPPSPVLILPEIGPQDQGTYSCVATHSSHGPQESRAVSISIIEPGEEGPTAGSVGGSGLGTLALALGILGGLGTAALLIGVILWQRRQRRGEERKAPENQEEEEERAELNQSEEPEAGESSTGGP
TSSK6: Testis-specific serine/threonine-protein kinase 6 (TSSK6, Homo sapiens, UniProt Q9BXA6)
Chain of UniProt Q9BXA6 (whole entry, looked up): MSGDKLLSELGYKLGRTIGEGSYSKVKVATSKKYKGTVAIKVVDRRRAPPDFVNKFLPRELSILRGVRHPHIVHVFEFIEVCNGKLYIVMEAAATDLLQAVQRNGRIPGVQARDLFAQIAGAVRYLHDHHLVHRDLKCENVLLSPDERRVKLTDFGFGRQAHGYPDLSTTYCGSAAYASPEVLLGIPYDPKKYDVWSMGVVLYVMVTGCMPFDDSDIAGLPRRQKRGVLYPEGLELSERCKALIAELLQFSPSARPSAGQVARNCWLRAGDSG
DRD5: D(1B) dopamine receptor (DRD5, Homo sapiens, UniProt P21918)
Chain of UniProt P21918 (whole entry, looked up): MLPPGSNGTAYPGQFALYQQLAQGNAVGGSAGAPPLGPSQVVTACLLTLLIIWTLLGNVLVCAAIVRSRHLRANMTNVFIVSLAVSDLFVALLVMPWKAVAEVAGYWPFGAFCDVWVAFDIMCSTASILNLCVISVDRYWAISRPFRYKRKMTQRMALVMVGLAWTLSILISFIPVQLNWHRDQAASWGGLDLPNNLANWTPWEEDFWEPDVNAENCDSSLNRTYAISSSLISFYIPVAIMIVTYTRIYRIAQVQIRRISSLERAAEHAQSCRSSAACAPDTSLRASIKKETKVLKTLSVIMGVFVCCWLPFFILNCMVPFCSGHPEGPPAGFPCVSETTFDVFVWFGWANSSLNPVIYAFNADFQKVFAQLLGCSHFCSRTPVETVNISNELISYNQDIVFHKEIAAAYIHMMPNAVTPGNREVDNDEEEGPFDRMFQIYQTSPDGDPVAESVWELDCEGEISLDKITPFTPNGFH
Chain of UniProt P08913 (whole entry, looked up): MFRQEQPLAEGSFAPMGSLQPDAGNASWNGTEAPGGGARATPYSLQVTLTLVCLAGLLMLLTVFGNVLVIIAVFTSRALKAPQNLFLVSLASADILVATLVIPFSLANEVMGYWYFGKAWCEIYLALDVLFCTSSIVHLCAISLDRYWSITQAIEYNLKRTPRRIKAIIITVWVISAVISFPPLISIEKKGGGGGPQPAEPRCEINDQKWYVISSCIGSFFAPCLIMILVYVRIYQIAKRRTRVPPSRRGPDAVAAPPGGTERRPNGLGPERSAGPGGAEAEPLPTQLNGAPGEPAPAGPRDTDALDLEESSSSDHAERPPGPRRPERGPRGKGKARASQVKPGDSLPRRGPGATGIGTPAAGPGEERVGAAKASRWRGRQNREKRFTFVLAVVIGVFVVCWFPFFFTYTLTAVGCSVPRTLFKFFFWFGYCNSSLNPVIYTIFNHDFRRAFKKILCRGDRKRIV
Chain of UniProt P05067 (whole entry, looked up): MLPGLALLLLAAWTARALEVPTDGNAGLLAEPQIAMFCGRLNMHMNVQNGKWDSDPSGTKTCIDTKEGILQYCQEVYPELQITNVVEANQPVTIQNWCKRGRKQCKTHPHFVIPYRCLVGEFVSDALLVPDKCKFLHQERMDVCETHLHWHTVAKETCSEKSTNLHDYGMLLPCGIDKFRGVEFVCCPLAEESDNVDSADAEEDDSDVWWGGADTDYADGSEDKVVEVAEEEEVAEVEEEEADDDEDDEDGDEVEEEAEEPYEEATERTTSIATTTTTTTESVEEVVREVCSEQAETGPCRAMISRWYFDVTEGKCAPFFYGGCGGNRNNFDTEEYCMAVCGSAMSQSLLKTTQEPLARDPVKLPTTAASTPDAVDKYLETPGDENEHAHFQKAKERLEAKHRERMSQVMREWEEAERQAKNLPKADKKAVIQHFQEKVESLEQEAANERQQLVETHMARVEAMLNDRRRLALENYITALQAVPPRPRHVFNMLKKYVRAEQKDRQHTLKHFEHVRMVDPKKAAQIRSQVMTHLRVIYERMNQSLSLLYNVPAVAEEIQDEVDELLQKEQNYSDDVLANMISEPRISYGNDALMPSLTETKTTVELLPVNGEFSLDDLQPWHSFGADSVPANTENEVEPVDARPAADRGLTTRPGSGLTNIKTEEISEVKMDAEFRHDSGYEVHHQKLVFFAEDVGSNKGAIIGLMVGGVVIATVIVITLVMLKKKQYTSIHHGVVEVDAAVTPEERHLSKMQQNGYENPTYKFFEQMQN

N=C(N)NCCCC(NC(=O)C(CC(=O)NO)Cc1ccc2ccccc2c1)C(=O)NC(Cc1c[nH]c2ccccc12)C(=O)NC(CCC(=O)O)C(N)=O (stereo not shown)  inhibition (Matrilysin (MMP7, Homo sapiens, UniProt P09237); 1 µM): 8%
CC(C)C[C@H](NC(=O)CCS[C@H]1O[C@H](CO)[C@@H](O)[C@H](O)[C@H]1O)C(=O)N1CCC[C@H]1C(=O)N[C@@H](Cc1ccccc1)C(=O)N[C@@H](Cc1ccccc1)C(=O)N[C@@H](CC(=O)O)C(=O)N[C@@H](CC(=O)O)C(=O)N[C@@H](C)C(=O)N[C@@H](Cc1c[nH]cn1)C(=O)N[C@@H](CCCCN)C(N)=O  inhibition (Amyloid-beta precursor protein, fibril (APP, Homo sapiens, UniProt P05067); amyloid aggregation, inhibitor; 5 µM): 10%
CC(=O)Oc1ccc(/C=C/C(=O)Oc2cc(C(F)(F)F)ccc2C(F)(F)F)cc1OC(C)=O  inhibition (SRD5A1; enzyme activity in cells, inhibitor; HaCaT; 50 µM): 24.6%
Cc1ccc(CNC(=O)[C@H](CCc2ccccc2)NC(=O)[C@H](CC(=O)NCC(C)(C)C)NC(=O)c2ccc(OCc3ccccc3)cc2)cc1  inhibition (Cathepsin B (CTSB, Homo sapiens, UniProt P07858); enzyme activity, inhibitor; 100 µM): -14%
Cc1cnc2nc1Nc1cccc(c1)COC/C=C/COCc1cc(ccc1OCCN1CCOCC1)N2  inhibition (JAK2; inhibitor, Z'-LYTE kinase; 0.9766 nM): 39.9% and 37.3% and 43.6%
O=C1c2sc(-c3ccc(N4CCC(F)C4)nc3F)nc2CCN1c1cccnc1 (stereo not shown)  inhibition (Alpha-1B adrenergic receptor (ADRA1B, Homo sapiens, UniProt P35368); ligand displacement, radioligand; 1 µM): 11%
O=C(O)CCNC(=S)NCCCC[C@H](NS(=O)(=O)c1cccc(F)c1)C(=O)N[C@@H](Cc1c[nH]c2ccccc12)C(=O)NC1CCC1  inhibition (SIRT2; enzyme activity, inhibitor; 10 µM): 6%
COc1ncc2nc(C)n(Cc3ncc(S(N)(=O)=O)cc3F)c2c1-c1ccccc1  inhibition (NR3C1; antagonist, cell-based; 10 µM): 9.63%
O=C1c2sc(-c3ccc(N4CCC(CO)CC4)nc3F)nc2CCN1c1cccnc1  inhibition (Adenosine receptor A1 (ADORA1, Homo sapiens, UniProt P30542); ligand displacement, radioligand; 1 µM): -10%
C=CC(=O)N1Cc2nc(-c3cc(-c4cc(Cl)cnc4Cl)c(F)cc3F)n(-c3ccncn3)c2C1  inhibition (5'-AMP-activated protein kinase catalytic subunit alpha-2, with beta1 gamma2 (PRKAA2, Homo sapiens, UniProt P54646); kinome panel; 1 µM): 6.5%
CC(C)Cn1c(SCC(=O)N2CCc3ccccc3C2)nc2cc(Cl)ccc2c1=O  inhibition (Alpha-2A adrenergic receptor (ADRA2A, Homo sapiens, UniProt P08913); ligand displacement, radioligand; 10 µM): 8%
Cc1ccc(N(O)/N=N/c2ccc(S(=O)(=O)Nc3nccs3)cc2)cc1  inhibition (α-glucosidase, rat intestine; enzyme activity; 120 µg/mL, together with: 4-nitrophenyl α-D-glucopyranoside): 22.5 ± 0.05%
O=C(Nc1ccc(Cl)cc1)Nc1ccc(C2CC(c3ccc(Cl)cc3)=NN2C(=O)Nc2ccc(Br)cc2)cc1 (stereo not shown)  inhibition (AGER; 100 µM): 34%
Cc1[nH]nc2c1N=C(c1ccccc1Cl)c1cnc(N3CCOCC3)cc1N2  inhibition (Estrogen receptor (ESR1, Homo sapiens, UniProt P03372); cell-free assay; 10 µM): 8%
CCCCC(=O)N1N=C(c2ccc(Cl)cc2)CC1c1ccc(NC(=O)Nc2ccc(Cl)cc2)cc1 (stereo not shown)  inhibition (AGER; 100 µM): 30%
CCn1cc(C(=O)O)c(=O)c2c(N)c(F)c(NC3CCCCC3)cc21  inhibition (TSSK6; kinase activity; 0.1 µM, together with: ATP at Km): 2.5%
Cc1cnc2nc1Nc1cccc(c1)COCCCCOCc1cc(ccc1OCCN1CCCC1)N2  inhibition (JAK2; inhibitor, Z'-LYTE kinase; 123.5 nM): 35.5% and 41.9% and 42%
O=C(Nc1ccc(F)cc1)Nc1ccc(C2=NNC(c3ccc(NC(=O)Nc4ccc(F)cc4)cc3)C2)cc1 (stereo not shown)  inhibition (AGER; 100 µM): 91%
CN(C)C/C=C/C(=O)Nc1ccc2nc(NCCCCCN(C)C)nc(NCCCCCCN(C)C)c2c1  inhibition (Protein arginine N-methyltransferase 5 (PRMT5, Homo sapiens, UniProt O14744); enzyme activity, inhibitor, radiometric; 10 µM): 8%
CN1CCN(Cc2ccc(-c3ccc(CO[C@H]4CCC[C@@H]4NC(=O)c4cc(-c5cnn(C)c5)cnc4N)cc3)cc2)CC1  inhibition (5'-AMP-activated protein kinase catalytic subunit alpha-2, with beta1 gamma3 (PRKAA2, Homo sapiens, UniProt P54646); SelectScreen kinase profiling; 0.1 µM): 8%
Cc1cnc2nc1Nc1cccc(c1)COCc1cc(ccc1OCCN1CCOCC1)N2  inhibition (JAK2; inhibitor, Z'-LYTE kinase; 0.1524 nM): 0.101% and 0.487% and 16.3%
C[Si](C)(C)C[C@@H](CN)CC(=O)O  inhibition (5-hydroxytryptamine receptor 1B (Htr1b, Rattus norvegicus, UniProt P28564); ligand displacement, radioligand; 75 µM): -3%
CC(=O)N(C)Cc1cccc(-c2cc3c(c(C(F)(F)F)c2)CCCC3N(C)C(=O)COC[C@@H]2CCNC[C@@H]2F)c1 (mixture of isomers)  inhibition (Translation initiation factor eIF2B subunit beta/Translation initiation factor eIF2B subunit delta (Homo sapiens, UniProt P49770+Q9UI10); ligand displacement, TR-FRET; 100 µM): 76%
CC1Cc2ccccc2N1C(=O)CN1CCN(c2ccccc2)CC1 (stereo not shown)  inhibition (DRD5; radioligand binding; concentration not given, together with: [3H]SCH23390): 18%
NC(=O)[C@@H](O)C[C@H]1CCc2sc3ncnc(O[C@H]4CC[C@H](N5CCOCC5)CC4)c3c21  inhibition (TSSK6; enzyme activity, inhibitor; 10 µM): -7%
Cn1ccc2cc(-n3c(=O)[nH]c4sc5c(c4c3=O)CCCC5)ccc21  inhibition (NR3C1; cell-free assay, radioligand; 10 µM): 9%
CN1CC[C@@H](COc2cnc(C#N)cc2-c2ccn3nc(NC(=O)C4CC4)cc3c2)C1  inhibition ([Pyruvate dehydrogenase (acetyl-transferring)] kinase isozyme 2, mitochondrial (PDK2, Homo sapiens, UniProt Q15119); enzyme activity, inhibitor; 1 µM): 22%
CC(=O)C12NC(C)(C)CC1(C)C(=O)C1=C2c2c(c3c4n2C(C)(C)CC2=C4C4(CC(C)(C)NC(C)(C4)C2=O)CC3(C)C)C(=O)C(C)(C)N1 (single isomer, unassigned; (+))  inhibition (Short transient receptor potential channel 5 (TRPC5, Homo sapiens, UniProt Q9UL62); ion current, antagonist, whole-cell patch clamp; HEK293T; 10 µM): 8.69 ± 0.06%
CN(Cc1ccc(/C=C/C(=O)NO)cc1)CC12CC3CC(CC(C3)C1)C2  inhibition (human D1 receptor; antagonist radioligand binding; 0.05 µM): -4%
O=C(Nc1ccc(Cl)cc1)Nc1ccc(C2CC(c3ccc(Cl)cc3)=NN2C(=O)Nc2ccc(Cl)cc2)cc1 (stereo not shown)  inhibition (AGER; 100 µM): 38%
COc1cc(/C=C/C(=O)Oc2cc(C(F)(F)F)cc(C(F)(F)F)c2)ccc1OC(C)=O  inhibition (SRD5A1; enzyme activity in cells, inhibitor; HaCaT; 50 µM): 18.9%
CC1Cc2ccccc2N1C(=O)CN1CCN(Cc2ccccc2)CC1 (stereo not shown)  inhibition (DRD5; radioligand binding; concentration not given, together with: [3H]SCH23390): 8.1%
CCCCCCCCCCCCNC(=S)NCCCC[C@H](NC(=O)OCc1ccccc1)C(=O)N[C@@H](Cc1c[nH]c2ccccc12)C(=O)N[C@@H](CC(C)C)C(N)=O  inhibition (SIRT2; enzyme activity, inhibitor; 100 µM): < 5%
COc1ccc(NC(=O)/C(=C/c2ccc(N(C)C)cc2Cl)Sc2ccc(OC)cc2)cc1  inhibition (AGER; AGE2-BSA binding, inhibitor, competitive ELISA; 100 µM, 60 min, together with: AGE2-BSA): 0%

Repeated from above:
Cc1ccc(CNC(=O)[C@H](CCc2ccccc2)NC(=O)[C@H](CC(=O)NCC(C)(C)C)NC(=O)c2ccc(OCc3ccccc3)cc2)cc1  inhibition (Cathepsin B (CTSB, Homo sapiens, UniProt P07858); enzyme activity, inhibitor; 100 µM): -14%
CCn1cc(C(=O)O)c(=O)c2c(N)c(F)c(NC3CCCCC3)cc21  inhibition (TSSK6; kinase activity; 0.1 µM, together with: ATP at Km): 2.5%
Cc1cnc2nc1Nc1cccc(c1)COC/C=C/COCc1cc(ccc1OCCN1CCOCC1)N2  inhibition (JAK2; inhibitor, Z'-LYTE kinase; 0.9766 nM): 39.9% and 37.3% and 43.6%
O=C(O)CCNC(=S)NCCCC[C@H](NS(=O)(=O)c1cccc(F)c1)C(=O)N[C@@H](Cc1c[nH]c2ccccc12)C(=O)NC1CCC1  inhibition (SIRT2; enzyme activity, inhibitor; 10 µM): 6%
CC(=O)N(C)Cc1cccc(-c2cc3c(c(C(F)(F)F)c2)CCCC3N(C)C(=O)COC[C@@H]2CCNC[C@@H]2F)c1 (mixture of isomers)  inhibition (Translation initiation factor eIF2B subunit beta/Translation initiation factor eIF2B subunit delta (Homo sapiens, UniProt P49770+Q9UI10); ligand displacement, TR-FRET; 100 µM): 76%
